{"data": "Experimental data pooled from the literature", "organism": "Streptococcus pyogenes", "note": "Protocols differ between the studies behind these lines. Several values in a cell are separate wells, animals, samples, runs or records."}
{"Structure (SMILES)": "CC(C)C[C@@H](NC(=O)[C@H](C)NC(=O)CNC(=O)[C@@H](NC=O)C(C)C)C(=O)N[C@@H](C)C(=O)N[C@@H](C(=O)N[C@H](C(=O)N[C@@H](C(=O)N[C@@H](Cc1c[nH]c2ccccc12)C(=O)N[C@H](CC(C)C)C(=O)N[C@@H](Cc1c[nH]c2ccccc12)C(=O)N[C@H](CC(C)C)C(=O)N[C@@H](Cc1c[nH]c2ccccc12)C(=O)N[C@@H](C(=O)N[C@@H](Cc1c[nH]c2ccccc12)C(=O)NCCO)C(C)C)[C@H](C)O)C(C)C)C(C)C", "test": "broth microdilution", "test system": "SSI-9", "endpoint": "MIC", "value": "0.067 µM"}
{"Structure (SMILES)": "CN[C@H](CC(C)C)C(=O)N[C@H]1C(=O)N[C@@H](CC(N)=O)C(=O)N[C@H]2C(=O)N[C@H]3C(=O)N[C@H](C(=O)N[C@H](C(=O)O)c4cc(O)cc(O)c4-c4cc3ccc4O)[C@H](O)c3ccc(c(Cl)c3)Oc3cc2cc(c3O[C@@H]2O[C@H](CO)[C@@H](O)[C@H](O)[C@H]2O[C@H]2C[C@](C)(N)[C@H](O)[C@H](C)O2)Oc2ccc(cc2Cl)[C@H]1O", "test": "broth microdilution", "test system": "sensitive clinical isolate", "conditions": "overnight, 37 °C", "endpoint": "MIC", "value": "< 1 µg/mL"}
{"Structure (SMILES)": "CC(=O)NC[C@H]1CN(c2ccc(N3CCOCC3)c(F)c2)C(=O)O1", "test": "broth microdilution", "endpoint": "MIC90", "value": "0.5 µg/mL"}
{"Structure (SMILES)": "CC[C@H]1OC(=O)[C@H](C)[C@@H](O[C@H]2C[C@@](C)(OC)[C@@H](O)[C@H](C)O2)[C@H](C)[C@@H](O[C@@H]2O[C@H](C)C[C@H](N(C)C)[C@H]2O)[C@](C)(O)C[C@@H](C)C(=O)[C@H](C)[C@@H](O)[C@]1(C)O", "test": "broth microdilution", "test system": "sensitive clinical isolate", "conditions": "overnight, 37 °C", "endpoint": "MIC", "value": "< 1 µg/mL"}
{"Structure (SMILES)": "CN[C@H](CC(C)C)C(=O)N[C@H]1C(=O)N[C@@H](CC(N)=O)C(=O)N[C@H]2C(=O)N[C@H]3C(=O)N[C@H](C(=O)N[C@H](C(=O)O)c4cc(O)cc(O)c4-c4cc3ccc4O)[C@H](O)c3ccc(c(Cl)c3)Oc3cc2cc(c3O[C@@H]2O[C@H](CO)[C@@H](O)[C@H](O)[C@H]2O[C@H]2C[C@](C)(N)[C@H](O)[C@H](C)O2)Oc2ccc(cc2Cl)[C@H]1O", "test": "broth microdilution", "test system": "8007", "endpoint": "MIC", "value": "0.5 µg/mL"}
{"Structure (SMILES)": "CN[C@H](CC(C)C)C(=O)N[C@H]1C(=O)N[C@@H](CC(N)=O)C(=O)N[C@H]2C(=O)N[C@H]3C(=O)N[C@H](C(=O)N[C@H](C(=O)O)c4cc(O)cc(O)c4-c4cc3ccc4O)[C@H](O)c3ccc(c(Cl)c3)Oc3cc2cc(c3O[C@@H]2O[C@H](CO)[C@@H](O)[C@H](O)[C@H]2O[C@H]2C[C@](C)(N)[C@H](O)[C@H](C)O2)Oc2ccc(cc2Cl)[C@H]1O", "test system": "ATCC 13813", "endpoint": "MIC range", "value": "0.5 µg/mL"}
{"Structure (SMILES)": "OB(O)c1csc2ccccc12", "conditions": "100 µM, 10 h", "scale": "reference: untreated", "endpoint": "growth", "value": "71.4% and 44.5% and 43.9% and 48.5% and 89.3%"}
{"Structure (SMILES)": "CN[C@H](CC(C)C)C(=O)N[C@H]1C(=O)N[C@@H](CC(N)=O)C(=O)N[C@H]2C(=O)N[C@H]3C(=O)N[C@H](C(=O)N[C@H](C(=O)O)c4cc(O)cc(O)c4-c4cc3ccc4O)[C@H](O)c3ccc(c(Cl)c3)Oc3cc2cc(c3O[C@@H]2O[C@H](CO)[C@@H](O)[C@H](O)[C@H]2O[C@H]2C[C@](C)(N)[C@H](O)[C@H](C)O2)Oc2ccc(cc2Cl)[C@H]1O", "test": "broth microdilution", "endpoint": "MIC50", "value": "0.5 µg/mL"}
{"Structure (SMILES)": "NC(=O)CC[C@@H](C(=O)NC[C@H]1O[C@@H](c2c[nH]c(=O)[nH]c2=O)[C@H](O)[C@@H]1O)N(O)C(=O)CN=C(N)N", "test system": "12384", "conditions": "16 h", "endpoint": "MIC", "value": "3.13 µg/mL"}
